Experimental data from different studies.
Numbered parts are unrelated; each lists some results of a single study.
Sequence of UniProt Q9H2X6 (whole entry, looked up): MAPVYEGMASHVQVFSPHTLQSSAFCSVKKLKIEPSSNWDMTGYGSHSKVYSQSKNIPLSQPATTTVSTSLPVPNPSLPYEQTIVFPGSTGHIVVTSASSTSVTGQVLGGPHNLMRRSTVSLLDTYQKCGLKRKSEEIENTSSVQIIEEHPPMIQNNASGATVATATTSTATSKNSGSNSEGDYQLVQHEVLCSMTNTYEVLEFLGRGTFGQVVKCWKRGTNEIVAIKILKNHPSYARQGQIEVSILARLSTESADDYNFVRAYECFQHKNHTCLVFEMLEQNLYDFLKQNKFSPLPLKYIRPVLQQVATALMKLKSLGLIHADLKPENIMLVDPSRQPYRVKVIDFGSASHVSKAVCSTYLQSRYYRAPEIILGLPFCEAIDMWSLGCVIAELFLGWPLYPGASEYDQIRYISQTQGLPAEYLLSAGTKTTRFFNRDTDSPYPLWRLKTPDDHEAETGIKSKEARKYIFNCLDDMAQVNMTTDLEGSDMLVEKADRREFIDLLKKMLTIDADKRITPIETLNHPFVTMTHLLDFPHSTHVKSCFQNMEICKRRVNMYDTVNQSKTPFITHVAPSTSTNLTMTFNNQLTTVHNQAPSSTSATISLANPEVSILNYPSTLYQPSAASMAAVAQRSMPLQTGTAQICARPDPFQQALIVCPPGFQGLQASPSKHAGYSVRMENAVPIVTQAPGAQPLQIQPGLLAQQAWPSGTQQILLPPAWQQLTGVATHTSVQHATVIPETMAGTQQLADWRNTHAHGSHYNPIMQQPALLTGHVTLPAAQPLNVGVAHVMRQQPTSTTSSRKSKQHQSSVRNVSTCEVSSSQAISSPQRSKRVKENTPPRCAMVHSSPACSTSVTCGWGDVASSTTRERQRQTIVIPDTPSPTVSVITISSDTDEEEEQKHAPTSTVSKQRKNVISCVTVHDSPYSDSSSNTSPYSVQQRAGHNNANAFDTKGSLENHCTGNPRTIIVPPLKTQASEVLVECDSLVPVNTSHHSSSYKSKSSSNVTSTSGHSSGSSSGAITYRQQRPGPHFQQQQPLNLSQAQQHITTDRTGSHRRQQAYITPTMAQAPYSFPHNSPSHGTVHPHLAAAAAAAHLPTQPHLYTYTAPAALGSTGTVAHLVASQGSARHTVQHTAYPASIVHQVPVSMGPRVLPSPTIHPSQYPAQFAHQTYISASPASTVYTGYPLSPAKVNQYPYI
Sequence of UniProt Q96Q40 (whole entry, looked up): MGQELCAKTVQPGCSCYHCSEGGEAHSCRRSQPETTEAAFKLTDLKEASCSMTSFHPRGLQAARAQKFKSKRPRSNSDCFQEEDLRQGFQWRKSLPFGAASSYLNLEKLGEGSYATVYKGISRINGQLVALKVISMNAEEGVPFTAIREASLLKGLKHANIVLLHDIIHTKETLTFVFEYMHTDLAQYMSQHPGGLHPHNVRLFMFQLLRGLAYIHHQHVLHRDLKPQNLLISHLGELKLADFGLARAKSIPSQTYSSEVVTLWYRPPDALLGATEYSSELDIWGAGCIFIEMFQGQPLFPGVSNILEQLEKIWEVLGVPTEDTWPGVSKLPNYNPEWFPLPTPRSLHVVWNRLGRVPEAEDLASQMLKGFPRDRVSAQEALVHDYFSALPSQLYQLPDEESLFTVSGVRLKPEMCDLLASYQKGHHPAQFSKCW
Sequence of UniProt P51955 (whole entry, looked up): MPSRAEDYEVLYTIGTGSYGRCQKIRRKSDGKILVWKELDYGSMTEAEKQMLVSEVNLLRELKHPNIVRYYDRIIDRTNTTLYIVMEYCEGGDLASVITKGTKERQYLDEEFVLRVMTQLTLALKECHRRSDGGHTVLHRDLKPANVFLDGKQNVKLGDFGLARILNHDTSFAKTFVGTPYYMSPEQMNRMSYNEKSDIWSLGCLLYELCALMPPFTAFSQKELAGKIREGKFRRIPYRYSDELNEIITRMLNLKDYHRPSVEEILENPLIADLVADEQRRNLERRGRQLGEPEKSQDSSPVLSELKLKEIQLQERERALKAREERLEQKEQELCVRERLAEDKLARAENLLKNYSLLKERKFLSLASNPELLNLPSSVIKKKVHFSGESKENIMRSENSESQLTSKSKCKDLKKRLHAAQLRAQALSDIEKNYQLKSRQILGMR
Sequence of UniProt O75460 (whole entry, looked up): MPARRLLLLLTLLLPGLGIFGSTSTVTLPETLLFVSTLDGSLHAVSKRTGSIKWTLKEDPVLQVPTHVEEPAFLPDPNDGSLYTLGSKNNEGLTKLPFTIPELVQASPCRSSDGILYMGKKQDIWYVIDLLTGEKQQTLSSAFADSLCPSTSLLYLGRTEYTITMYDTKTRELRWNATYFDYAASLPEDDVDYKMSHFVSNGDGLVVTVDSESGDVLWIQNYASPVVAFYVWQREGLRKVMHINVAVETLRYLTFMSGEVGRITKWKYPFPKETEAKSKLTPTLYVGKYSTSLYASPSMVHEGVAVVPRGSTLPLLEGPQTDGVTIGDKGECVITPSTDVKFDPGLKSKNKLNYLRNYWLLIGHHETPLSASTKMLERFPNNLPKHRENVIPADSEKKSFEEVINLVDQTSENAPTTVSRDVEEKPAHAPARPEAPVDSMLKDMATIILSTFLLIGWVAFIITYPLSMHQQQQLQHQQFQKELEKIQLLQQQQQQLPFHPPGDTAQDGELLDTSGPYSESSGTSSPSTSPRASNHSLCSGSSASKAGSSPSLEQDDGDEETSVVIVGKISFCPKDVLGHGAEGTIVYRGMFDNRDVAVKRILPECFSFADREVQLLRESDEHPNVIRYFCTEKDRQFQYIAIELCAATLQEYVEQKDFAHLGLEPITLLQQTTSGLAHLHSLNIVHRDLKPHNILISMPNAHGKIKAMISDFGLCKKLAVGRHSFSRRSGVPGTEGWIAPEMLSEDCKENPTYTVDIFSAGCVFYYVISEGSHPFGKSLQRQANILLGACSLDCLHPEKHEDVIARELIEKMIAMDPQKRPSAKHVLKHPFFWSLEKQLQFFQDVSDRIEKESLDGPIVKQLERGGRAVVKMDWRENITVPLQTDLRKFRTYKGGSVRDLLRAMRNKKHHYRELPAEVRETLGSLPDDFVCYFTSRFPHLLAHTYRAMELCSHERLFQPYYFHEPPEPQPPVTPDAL
Sequence of UniProt P42336 (whole entry, looked up): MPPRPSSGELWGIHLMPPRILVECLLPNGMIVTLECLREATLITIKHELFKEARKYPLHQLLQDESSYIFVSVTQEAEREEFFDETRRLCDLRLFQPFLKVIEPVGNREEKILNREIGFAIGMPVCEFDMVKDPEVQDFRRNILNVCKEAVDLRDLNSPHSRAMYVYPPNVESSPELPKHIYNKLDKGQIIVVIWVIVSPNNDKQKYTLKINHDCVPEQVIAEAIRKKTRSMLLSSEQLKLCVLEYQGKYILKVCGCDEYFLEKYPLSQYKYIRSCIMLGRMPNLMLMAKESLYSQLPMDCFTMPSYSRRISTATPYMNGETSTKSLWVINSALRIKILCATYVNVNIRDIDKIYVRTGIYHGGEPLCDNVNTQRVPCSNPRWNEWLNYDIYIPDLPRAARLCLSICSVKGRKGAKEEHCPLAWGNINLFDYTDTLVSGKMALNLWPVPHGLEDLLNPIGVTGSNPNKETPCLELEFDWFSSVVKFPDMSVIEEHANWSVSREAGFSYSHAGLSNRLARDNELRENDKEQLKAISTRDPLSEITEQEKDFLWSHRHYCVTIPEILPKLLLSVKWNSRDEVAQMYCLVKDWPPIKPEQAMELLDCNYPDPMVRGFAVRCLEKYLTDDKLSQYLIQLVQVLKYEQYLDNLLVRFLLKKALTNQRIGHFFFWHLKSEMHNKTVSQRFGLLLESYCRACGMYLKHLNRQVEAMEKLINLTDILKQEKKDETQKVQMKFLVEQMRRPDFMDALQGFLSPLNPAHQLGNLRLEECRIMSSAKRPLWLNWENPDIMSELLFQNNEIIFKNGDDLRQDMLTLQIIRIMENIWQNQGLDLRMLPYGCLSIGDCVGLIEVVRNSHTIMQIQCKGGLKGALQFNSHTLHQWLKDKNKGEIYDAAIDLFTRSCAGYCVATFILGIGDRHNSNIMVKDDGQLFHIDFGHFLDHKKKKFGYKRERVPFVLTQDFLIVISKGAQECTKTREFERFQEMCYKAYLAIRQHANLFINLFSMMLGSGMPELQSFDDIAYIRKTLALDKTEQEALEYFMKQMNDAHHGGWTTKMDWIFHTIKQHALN
Sequence of UniProt Q8N568 (whole entry, looked up): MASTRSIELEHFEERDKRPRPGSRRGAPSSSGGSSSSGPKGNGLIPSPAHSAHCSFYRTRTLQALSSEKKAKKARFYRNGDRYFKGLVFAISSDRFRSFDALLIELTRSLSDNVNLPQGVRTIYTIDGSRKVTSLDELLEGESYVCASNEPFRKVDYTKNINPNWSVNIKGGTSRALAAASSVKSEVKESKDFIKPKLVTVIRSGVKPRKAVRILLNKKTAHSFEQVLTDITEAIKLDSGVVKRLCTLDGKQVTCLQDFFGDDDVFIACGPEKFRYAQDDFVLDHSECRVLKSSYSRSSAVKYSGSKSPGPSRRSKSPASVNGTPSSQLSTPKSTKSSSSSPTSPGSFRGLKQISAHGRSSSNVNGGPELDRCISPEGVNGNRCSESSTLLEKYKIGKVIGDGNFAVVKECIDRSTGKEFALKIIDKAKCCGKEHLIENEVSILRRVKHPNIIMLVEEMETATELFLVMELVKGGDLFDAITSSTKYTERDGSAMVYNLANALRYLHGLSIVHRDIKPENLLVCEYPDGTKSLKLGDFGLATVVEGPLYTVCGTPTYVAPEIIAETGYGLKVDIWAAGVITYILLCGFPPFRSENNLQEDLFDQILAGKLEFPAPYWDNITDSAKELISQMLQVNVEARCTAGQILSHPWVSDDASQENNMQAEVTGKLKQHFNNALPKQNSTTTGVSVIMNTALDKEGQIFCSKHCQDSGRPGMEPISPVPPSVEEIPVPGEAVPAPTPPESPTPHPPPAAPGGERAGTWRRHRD

Study 1 — cell line: mouse MPNST tumor cells; technique: high-content nuclear imaging; measured: cell number; concentration: 10 µM; time: 12 h; setting: mean of 2 replicates; baseline: plate mean; direction: higher = more cells
SMILES	nuclei count
Cc1ccc(S(=O)(=O)Nc2ccc3c(c2)c(C(=O)C(F)(F)F)cn3CC(=O)N[C@@H](CC(C)C)C(=O)O)cc1	0.69 z-score
CN1C[C@H](Nc2cnn(C)c(=O)c2Br)C[C@H](c2ccccc2)C1	1.43 z-score
Cc1ccc(NC(=O)Nc2cc(C(F)(F)F)ccc2F)cc1Nc1ccc2c(c1)NC(=O)/C2=C\c1ccc[nH]1	1.25 z-score

Study 2 — host: human; medium: microsomes or S9; concentration: 2 µM; time: 0.5 h
Compound	remaining compound
N#Cc1ccccc1N1CCN(C2CCC(C(=O)Nc3cccc(Cl)c3Cl)C2)CC1 (stereo not shown)	19.1%
Cc1ccccc1Cc1c(C)nc2c(C(=O)N3CCc4c(c(-c5nncn5C)nn4C)C3)cnn2c1C	32%
Cc1c(C(=O)N2c3ccccc3CC2C)sc2nc(-c3ccccc3)cn12 (stereo not shown)	89.5%
CC(C)(C)/N=c1\[nH]c(-c2ccccc2O)nc2ccccc12	58.5%

Study 3 — cell line: HaCaT; concentration: 100 µM; time: 36 h
Compound	viability
OCCN1CCN(CCCN2c3ccccc3Sc3ccc(Cl)cc32)CC1	5.62%
Clc1ccc(C(Cn2ccnc2)OCc2c(Cl)cccc2Cl)c(Cl)c1 (stereo not shown)	64.6%
CCOC(=O)N[C@@H]1CC[C@@H]2[C@@H](C1)C[C@H]1C(=O)O[C@H](C)[C@H]1[C@H]2/C=C/c1ccc(-c2cccc(F)c2)cn1	115%
CCN(CCO)CCCC(C)Nc1ccnc2cc(Cl)ccc12 (stereo not shown)	5.2%

Study 4 — host: human patients; medium: plasma
Structure (SMILES): COc1ccc(-c2c(Nc3ccccn3)[nH]c3c(C4=CCCCC4)c(-c4ccccc4)nn3c2=O)cc1
measured	dose	time	median concentration
S-adenosylmethionine	400 mg once daily	0 h	21.4 ng/mL
S-adenosylmethionine	100 mg once daily	8 h	16 ng/mL
S-adenosylmethionine	150 mg once daily	2 h	18.9 ng/mL
methionine	100 mg once daily	6 h	80700 ng/mL
S-adenosylmethionine	200 mg once daily	6 h	13.5 ng/mL
S-adenosylmethionine	150 mg once daily	8 h	18.3 ng/mL
S-adenosylmethionine	150 mg once daily	6 h	17.9 ng/mL

Study 5 — technique: competition with immobilised ligand; concentration: 1 µM
SMILES: C[C@@H](c1cccc(C#N)c1)n1cc(Cl)cc(C(N)=O)c1=N
target	read-out	remaining binding [%]
Phosphatidylinositol 4-phosphate 5-kinase type-1 alpha (PIP5K1A, Homo sapiens, UniProt Q99755)	cell-free assay	100
Serine/threonine-protein kinase Sgk1 (SGK1, Homo sapiens, UniProt O00141)	cell-free assay	100
Serine/threonine-protein kinase/endoribonuclease IRE1 (ERN1, Homo sapiens, UniProt O75460)	cell-free assay	76
Serine/threonine-protein kinase Nek2 (NEK2, Homo sapiens, UniProt P51955)	cell-free assay	100
Serine/threonine-protein kinase Nek3 (NEK3, Homo sapiens, UniProt P51956)	cell-free assay	44
Serine/threonine-protein kinase DCLK2 (DCLK2, Homo sapiens, UniProt Q8N568)	cell-free assay	90
Tyrosine-protein kinase Tec (TEC, Homo sapiens, UniProt P42680)	binding	88
Homeodomain-interacting protein kinase 2 (HIPK2, Homo sapiens, UniProt Q9H2X6)	cell-free assay	100
Inhibitor of nuclear factor kappa-B kinase subunit beta (IKBKB, Homo sapiens, UniProt O14920)	cell-free assay	100
Macrophage colony-stimulating factor 1 receptor, autoinhibited (CSF1R, Homo sapiens, UniProt P07333)	cell-free assay	96
Phosphatidylinositol 4,5-bisphosphate 3-kinase catalytic subunit alpha isoform (PIK3CA, Homo sapiens, UniProt P42336)	cell-free assay	100
Receptor-interacting serine/threonine-protein kinase 4 (RIPK4, Homo sapiens, UniProt P57078)	cell-free assay	57
Interleukin-1 receptor-associated kinase 3 (IRAK3, Homo sapiens, UniProt Q9Y616)	cell-free assay	99
Mitogen-activated protein kinase 13 (MAPK13, Homo sapiens, UniProt O15264)	cell-free assay	98
Serine/threonine-protein kinase 32A (STK32A, Homo sapiens, UniProt Q8WU08)	binding	100
Cyclin-dependent kinase 15 (CDK15, Homo sapiens, UniProt Q96Q40)	cell-free assay	89

Excerpt of the above (study 1):
SMILES	nuclei count
Cc1ccc(S(=O)(=O)Nc2ccc3c(c2)c(C(=O)C(F)(F)F)cn3CC(=O)N[C@@H](CC(C)C)C(=O)O)cc1	0.69 z-score
CN1C[C@H](Nc2cnn(C)c(=O)c2Br)C[C@H](c2ccccc2)C1	1.43 z-score
Cc1ccc(NC(=O)Nc2cc(C(F)(F)F)ccc2F)cc1Nc1ccc2c(c1)NC(=O)/C2=C\c1ccc[nH]1	1.25 z-score
